Experimental data of several laboratories.
Each numbered part is a random draw from the data of one study; scales do not carry over between parts. “And” joins repeats or separate records; there may be more than shown. Substitutions count along the parent as printed.
UniProt Q6XUX3, sequence (whole entry, looked up): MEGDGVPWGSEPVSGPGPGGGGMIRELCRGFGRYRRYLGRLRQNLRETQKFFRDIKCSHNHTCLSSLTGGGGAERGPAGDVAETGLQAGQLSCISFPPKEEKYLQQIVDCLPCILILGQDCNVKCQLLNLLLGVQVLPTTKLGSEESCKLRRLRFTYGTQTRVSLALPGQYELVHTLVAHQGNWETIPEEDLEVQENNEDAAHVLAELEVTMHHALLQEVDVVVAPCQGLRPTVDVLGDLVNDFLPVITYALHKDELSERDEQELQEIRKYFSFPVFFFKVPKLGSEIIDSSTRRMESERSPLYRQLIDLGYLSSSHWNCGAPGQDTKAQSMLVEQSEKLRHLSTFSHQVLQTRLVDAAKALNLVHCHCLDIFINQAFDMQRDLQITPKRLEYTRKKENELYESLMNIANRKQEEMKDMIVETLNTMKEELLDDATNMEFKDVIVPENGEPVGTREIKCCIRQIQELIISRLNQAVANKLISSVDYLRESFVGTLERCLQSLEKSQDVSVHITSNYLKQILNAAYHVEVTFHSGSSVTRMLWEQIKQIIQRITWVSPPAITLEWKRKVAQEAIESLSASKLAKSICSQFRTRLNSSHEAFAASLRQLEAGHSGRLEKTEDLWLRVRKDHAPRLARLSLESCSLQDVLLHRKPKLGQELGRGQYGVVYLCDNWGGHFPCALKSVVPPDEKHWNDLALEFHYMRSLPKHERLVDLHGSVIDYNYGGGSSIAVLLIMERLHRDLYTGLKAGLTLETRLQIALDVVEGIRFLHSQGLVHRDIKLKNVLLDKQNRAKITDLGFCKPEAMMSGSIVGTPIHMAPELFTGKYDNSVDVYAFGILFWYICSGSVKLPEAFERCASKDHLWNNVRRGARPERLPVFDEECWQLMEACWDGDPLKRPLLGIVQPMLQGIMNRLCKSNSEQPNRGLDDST

Block 1
Target: CCNA1, cyclin fold, Cln2 fusion (human)
Method: yeast growth competition, sequencing
Matrix: yeast
Setting: weak parent motif
Relative to: not given
Direction: higher = stronger binding
Parent: WEE1 docking peptide (human); HKTFRKLRLFDTP
Variant	normalised enrichment score
HKYFRKLRLFDTP [T3Y]	-0.5
HKTFRKLQLFDTP [R8Q]	0.436
HKTFRKLRLFETP [D11E]	0.248
HRTFRKLRLFDTP [K2R]	0.39
HKTFRKNRLFDTP [L7N]	0.31
HKTFRKLRLFDNP [T12N]	0.565
HKTFRKLRLFDTL [P13L]	0.00483
HKPFRKLRLFDTP [T3P]	0.261

Block 2
Target: PABPC1L2, full length, GST fusion (mouse, UniProt A0ABA7IW68)
Method: RNAcompete
Molecule type: RNA
Matrix: in vitro
Tested at: 20 nM
Setting: 7-mer, probes averaged, single round
Relative to: mean of 7-mers
Direction: higher = stronger binding
Residues (chain): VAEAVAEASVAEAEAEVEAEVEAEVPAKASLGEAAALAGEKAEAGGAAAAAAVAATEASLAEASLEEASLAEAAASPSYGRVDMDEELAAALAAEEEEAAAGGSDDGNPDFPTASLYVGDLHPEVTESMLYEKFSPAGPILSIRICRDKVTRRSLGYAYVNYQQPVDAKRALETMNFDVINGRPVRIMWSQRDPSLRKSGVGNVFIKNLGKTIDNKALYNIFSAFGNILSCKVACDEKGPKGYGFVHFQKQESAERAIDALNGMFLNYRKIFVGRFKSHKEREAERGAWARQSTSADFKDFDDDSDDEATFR
Sequence	7-mer Z-score
AUGACUU	-0.267
ACUUUAG	0.0805
GGCGCAG	0.173
GCUUCCG	-0.287
GGGAUGU	0.066
GUGAGCA	-0.211
CUGAAAA	4.92
AGAUUUU	-0.394

Mixed results
Molecule	target or system	test	system	setting	scale	measurement	value
Cn1cc(/C=C2\C(=O)Nc3ccc(S(N)(=O)=O)cc32)c2ccccc21	DSTYK (Homo sapiens, UniProt Q6XUX3)	enzyme activity, inhibitor		0.5 µM	relative to: control	remaining activity	92.5%
PhoQ, residues 284 288 289 292 302 303 TLMATV	PhoP, residues 12 14 15 18 19 SMASL (Escherichia coli, UniProt P23836)	Sort-seq, refers to: YFP reporter	E. coli	PhoQ-PhoP variant library, added: 10 µM Mg2+	relative to: high Mg2+ state, higher = stronger signaling	fold induction	21.1
CN(C)C(=O)/C(C#N)=C/c1ccc(-c2nc3cnc4[nH]ccc4c3n2C2CCCCC2)o1	normal-adjacent epithelium patient-derived organoids sample F	CellTiter-Glo		0.1 µM	relative to: DMSO	viability	78.9% and 114%

A few entries again (block 2):
Sequence	7-mer Z-score
GUGAGCA	-0.211
